Results pooled from the literature.
Each numbered part is a random draw from the data of one study; scales do not carry over between parts.

Study 1
Target: Histone acetyltransferase KAT6A, winged helix 2, GST fusion (KAT6A, Homo sapiens, UniProt Q92794, residues 85-181)
Method: protein binding microarray
Form: double-stranded DNA, one strand shown
Sample: in vitro
Tested at: not given
Notes: 8-mer, flanks averaged, mean of 2 arrays, mostly near background
Baseline: not given
Reading: higher = stronger binding
Residues (chain): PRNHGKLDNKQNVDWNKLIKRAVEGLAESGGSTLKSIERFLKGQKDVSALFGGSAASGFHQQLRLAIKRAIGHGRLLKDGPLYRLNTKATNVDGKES
Strand	E-score
CCGGCCAG	0.139
TACAGGCA	0.0168
AGATTTTG	0.0977
CGGTCAGC	0.166
ATGCTGAC	0.0761
AGCTTACC	-0.0709
AATGTATC	0.00805
ACTATGTC	-0.196
ACATAGCA	-0.0322
CAGCGGAA	0.0222
GACGCCCC	-0.103
AGACGCTA	0.00279
CGGTCGAC	0.209
AACCAACT	-0.0932
CCTAGCAC	-0.0259
GAGAAAGA	0.0396
CAACCAAC	-0.0795

Study 2
Target: Interferon regulatory factor 5, full length, phosphomimetic (IRF5, Homo sapiens, UniProt Q13568-2, residues 1-514, K96S/S451D/S453D/S456D/S462D)
Method: protein-binding microarray
Form: double-stranded DNA, one strand shown
Sample: in vitro
Tested at: 250 nM
Notes: 60-bp whole probe
Together with: salmon DNA 0.4 mg/ml
Baseline: random background probes
Reading: higher = stronger binding
Constant ends, left off below: GCCTAGCAC … GTCTTGATTCGCTTGACGCTGCTG
Strand	log fluorescence
TCAAGTCCCACATCTCTGACTGTGCTA	-0.31 z-score
GACGGTATTGGGTTTCGGGACGTGCTA	2.35 z-score
GACGATTACAGTCTCGAGACGTGCTAG	0.222 z-score
TTAGGTTCCCTCTTCCTTTAGTGCTAG	0.0665 z-score
TTCCCTTTTAAGTTCTCTGAGTGCTAG	0.789 z-score
TTAGGTTTCGGGACTAGGTTAGTGCTA	6.27 z-score
TTAGGACTGGACTATCGGTTCGTGCTA	4.24 z-score
GACGGTTTCGACTACCGGGACGTGCTA	6.28 z-score
TTAGGACTGCTTCTTCTTTAGTGCTAG	-0.0782 z-score
CCCTGTTTCCATCTCTCAAAGTGCTAG	1.41 z-score
TCATGTATGGATGTGTTACTGTGCTAG	0.14 z-score
TTAGGACTGGTGTTTCGGTTAGTGCTA	6.78 z-score
GACGGTTACGACTATCGGGACGTGCTA	1.11 z-score
GACGATCTCAGACTGGGGACGTGCTAG	-0.149 z-score
TTAGGACTGGGGTGTCGGTTAGTGCTA	-0.338 z-score
TTCACTCTCTGCTTGTATCTGTGCTAG	1.13 z-score
TTAGATTTCAATTCCGATTAGTGCTAG	1.56 z-score
GACGGTTTCGTTATCCTGACGTGCTAG	6.27 z-score
GACGATATCGGGACTGGAGCCGTGCTA	0.916 z-score
TCATCTGTCAGTTTTGAACTGTGCTAG	0.852 z-score
TTAGGTATCCACTATCGGTTAGTGCTA	7.24 z-score
TCAACTTCTCTTTTGGCACTGTGCTAG	1.04 z-score
GACGATATCAATTTCGAGACGTGCTAG	3.35 z-score

Study 3
Target: Centromere-binding protein 1, full length, N-terminal tag (CBF1, Saccharomyces cerevisiae, UniProt P17106, residues 1-351)
Chain of UniProt P17106 (whole entry, looked up): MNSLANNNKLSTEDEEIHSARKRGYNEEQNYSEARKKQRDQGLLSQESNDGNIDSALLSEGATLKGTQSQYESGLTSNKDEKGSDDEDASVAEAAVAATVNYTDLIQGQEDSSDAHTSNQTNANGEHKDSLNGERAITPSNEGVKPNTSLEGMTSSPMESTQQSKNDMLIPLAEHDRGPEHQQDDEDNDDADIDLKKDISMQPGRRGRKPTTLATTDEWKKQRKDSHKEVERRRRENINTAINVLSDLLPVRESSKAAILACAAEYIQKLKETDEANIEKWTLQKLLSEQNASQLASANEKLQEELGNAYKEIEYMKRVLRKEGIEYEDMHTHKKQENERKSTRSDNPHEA
Method: protein-binding microarray
Form: double-stranded DNA, one strand shown
Sample: in vitro
Tested at: 0.8 µM
Notes: whole 60-bp probe, no competitor
Reading: higher = stronger binding
Constant ends, left off below: … GTCTTGATTCGCTTGACGCTGCTG
Strand	fluorescence intensity
CTAGTACGTAGTGATTGCGTGGATTAGTTTATCTTC	502 a.u.
CTATTACTTACTGATCTCATGATCTCAGTGCAATTC	837 a.u.
TGTACGAAGCTATCAGACGTGAGTATAGTAGTTAGG	541 a.u.
GAACGGTAAAATAATCACCTGAAAAAAACTAGGTAG	709 a.u.
GAATTTGTTCAAGGTGGCGTTTGCCGTATAAAATAG	538 a.u.
GAATTATAAATGATACGCACCACCAGGTGAAGGTAG	528 a.u.
TGTACGAAGCTATGGCACGTGGTTATAGTAGTTAGG	7020 a.u.
CTATTTAAAAAGCGTTGCGTGATGTTTGGGTGCTTC	563 a.u.
GAACTGCTTTATAATCACGGGAGTATGACAGCATAG	1110 a.u.
CTAACATCCCACATCCGCATGATAGGAGATGTGTTC	553 a.u.
CCTAACTACTATAATCACGTGGTATAGCTTCGTACA	12200 a.u.
CTATCTCGTATCTTTCGCCTGATAATATGAAAATTC	617 a.u.
CCTAACTACTATAGTGACTTCTCATAGCTTCGTACA	518 a.u.
GAAGGTTTTCCCGCTAACGTGTTCTTAAAGGATTAG	672 a.u.
CTACATAATATTTTCGTCACCATTATCTTGTTGTTC	555 a.u.
GAATGACGGTACGTTCTGATGCTGCCTTGCTTGTAG	477 a.u.
CTAAAGGACGAGCGTGGTGGAGGAAAGGGGCGCTTC	483 a.u.
CTAGAAGCTGAAATGCACGGATTGATAATGTAATTC	527 a.u.
GAAGAGACGCCCATTAATGTGACTTGAATATACTAG	605 a.u.
CCTAACTACTATAATCACGTCATATAGCTTCGTACA	615 a.u.
CTAATAAGAGAGCGGAGCACGTGGGAAAAGAGATTC	3380 a.u.
GAATGTATCTATACTAGCGTGGTGTGCATAATTTAG	545 a.u.
CTAGTATCTAGAGCGCTGGTGGTGGAGTTGCATTTC	490 a.u.
CTAGTAGTATATTATCACGTGCGGTGTAAGAGGTTC	8970 a.u.
GAAGAAAAATTTCATCAGACTTTCTTGTAATATTAG	512 a.u.

Study 4
Target: RING finger protein unkempt homolog, zinc fingers 1-6, SBP tag (UNK, Homo sapiens, UniProt Q9C0B0, residues 30-357)
Chain of UniProt Q9C0B0 (30-357, looked up): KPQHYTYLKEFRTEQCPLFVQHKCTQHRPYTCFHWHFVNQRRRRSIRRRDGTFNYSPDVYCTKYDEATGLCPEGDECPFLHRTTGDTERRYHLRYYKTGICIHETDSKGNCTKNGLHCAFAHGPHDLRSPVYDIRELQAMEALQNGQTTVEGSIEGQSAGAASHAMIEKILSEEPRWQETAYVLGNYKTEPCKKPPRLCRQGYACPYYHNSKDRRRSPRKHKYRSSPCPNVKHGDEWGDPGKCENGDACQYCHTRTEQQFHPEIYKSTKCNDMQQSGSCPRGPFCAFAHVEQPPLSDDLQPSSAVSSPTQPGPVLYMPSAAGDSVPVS
Method: RNA Bind-n-Seq
Form: RNA
Sample: in vitro
Tested at: 100 nM
Notes: RNA with constant flanks, vertebrate orthologous sites, ends assumed
Baseline: input RNA pool
Reading: higher = stronger binding
Constant ends, left off below: GGGAGUUCUACAGUCCGACGAUC … CAACAGAGGAUUGAGCAUCA
Strand	bound/input enrichment [ratio]
AGAAAAUUUUAACCAAGAAUCUGAAGGUAGAAAUUCAGGACCUUGGUUAUCGUCCUCAUUUAGGAAUAGAUGUACACCUUUGUUCUCUAGAAGGAGGCGAGAGGGAAGAGAUGAAUCUUC	0.508
AUUCAAACCUGUGGUGCCGUGGCCUCAUGUUGAAGGAGUAGAAGUGGACUUAGAGUCUAUUAGAAGAAAAAACAAGGCCAAAAAUGAACAAGAGCGCCACGCUGGAGGAGCUAACCAGAA	0.34
UUUUUUAAAAGUUUUUUUAAUUUAAUUUUUCCUUUCGGGGGUAAAGUUUGCUCUACCAAAUAGUGAUUGUAACAAAUUGAUCUGUUUUGGAUGUUGCUAUAGUGACAUGCAGUUAUAUAU	0.86
CAUCUCUCAUUUUAUAUGUCCAAAAAUGGCUUUGAAUUUUAAGCAAUUACUAGUUUUAAUUAGCUCUGCCCUCAUGAAGUAUUAUUAUAAUUCACCGUAAACAGAUAUCUGUCUGAAUUA	1.24
UUUCCCAUUGCCCCUAAAGUAGAACUUUUUAAAACUGUGUCACCACCACUUCUAAAAAUUUAGCAAUAUUUGAAGAAAAUGCUAAAAAUGAAAUUUUGCUUGGUGUUUUGCAAACCAAAU	0.393
UGUCCUUGUUAAGCACUGCGGUCCAGACCGUGUCUGACUUAGUUAACCUAGGGGAUUUUAUAGUUUUACUUUAAUGAAGUCUGGACUAACACAGAGCUGUGAGGAGGACGGUCCCUCUCC	0.598
UAGUUGGAAGAAUAAUAUAGGAGGUUGUGGUCAAAAAGUAGGAGUUGUUGGGGAGAGAAGUUAACAAAUAUCAAGAACCAGGUGGCCAAAGAAUGGAGCUGUAGAUAUUGAAAUUCAUGU	0.598
AAUAAUGAAUAGUAUUAAAGAAACAUUCUCGUCUUCCUUUACCUUUAAUCCCCUAAUACCUAGUCUACUUUUUAAAUUUUCAGACUUCACUGCUUUUUGAAUUCAUAAUUCUAAUUUUCA	2.05
CUCCUCUUAAUCCCAUCUCAUCUGUUUCAUAGUGCUGAAGCUCUGUCUUCAGCCUUAUUUUUAGCGAACUUAUUCUAAUUAUAGAGAAACUUCCAGUGUGGAUACUGUGAGCUAUAUGGA	1.77
UUGUGAAGAGUGGGAAAGAUGAGGUUCUUCUCCCUCCAAGUAAAGCUGACGUAACUUCCUUUUAGUUCUGUCUUUGAAAACAAAGAUGCUCUUUUCUCUUAGUUGUGUGACACCACUAUC	2.26
CCCCGAUUUUAGAUGUGAUAUCUAGGCUCUCAUUCUAGUUUGUUUUUGUCUUUUCUUGUUUAGAUACCAAUCUUUUAAAUUCUUGCAUUUUAGUAAGAAAGCUACCUUUUUAUGGAUGUU	2.83

A few entries again (study 4):
Strand	bound/input enrichment [ratio]
AGAAAAUUUUAACCAAGAAUCUGAAGGUAGAAAUUCAGGACCUUGGUUAUCGUCCUCAUUUAGGAAUAGAUGUACACCUUUGUUCUCUAGAAGGAGGCGAGAGGGAAGAGAUGAAUCUUC	0.508
AUUCAAACCUGUGGUGCCGUGGCCUCAUGUUGAAGGAGUAGAAGUGGACUUAGAGUCUAUUAGAAGAAAAAACAAGGCCAAAAAUGAACAAGAGCGCCACGCUGGAGGAGCUAACCAGAA	0.34
UUUUUUAAAAGUUUUUUUAAUUUAAUUUUUCCUUUCGGGGGUAAAGUUUGCUCUACCAAAUAGUGAUUGUAACAAAUUGAUCUGUUUUGGAUGUUGCUAUAGUGACAUGCAGUUAUAUAU	0.86
CAUCUCUCAUUUUAUAUGUCCAAAAAUGGCUUUGAAUUUUAAGCAAUUACUAGUUUUAAUUAGCUCUGCCCUCAUGAAGUAUUAUUAUAAUUCACCGUAAACAGAUAUCUGUCUGAAUUA	1.24
UUUCCCAUUGCCCCUAAAGUAGAACUUUUUAAAACUGUGUCACCACCACUUCUAAAAAUUUAGCAAUAUUUGAAGAAAAUGCUAAAAAUGAAAUUUUGCUUGGUGUUUUGCAAACCAAAU	0.393
UGUCCUUGUUAAGCACUGCGGUCCAGACCGUGUCUGACUUAGUUAACCUAGGGGAUUUUAUAGUUUUACUUUAAUGAAGUCUGGACUAACACAGAGCUGUGAGGAGGACGGUCCCUCUCC	0.598
UAGUUGGAAGAAUAAUAUAGGAGGUUGUGGUCAAAAAGUAGGAGUUGUUGGGGAGAGAAGUUAACAAAUAUCAAGAACCAGGUGGCCAAAGAAUGGAGCUGUAGAUAUUGAAAUUCAUGU	0.598
AAUAAUGAAUAGUAUUAAAGAAACAUUCUCGUCUUCCUUUACCUUUAAUCCCCUAAUACCUAGUCUACUUUUUAAAUUUUCAGACUUCACUGCUUUUUGAAUUCAUAAUUCUAAUUUUCA	2.05
CUCCUCUUAAUCCCAUCUCAUCUGUUUCAUAGUGCUGAAGCUCUGUCUUCAGCCUUAUUUUUAGCGAACUUAUUCUAAUUAUAGAGAAACUUCCAGUGUGGAUACUGUGAGCUAUAUGGA	1.77
UUGUGAAGAGUGGGAAAGAUGAGGUUCUUCUCCCUCCAAGUAAAGCUGACGUAACUUCCUUUUAGUUCUGUCUUUGAAAACAAAGAUGCUCUUUUCUCUUAGUUGUGUGACACCACUAUC	2.26
CCCCGAUUUUAGAUGUGAUAUCUAGGCUCUCAUUCUAGUUUGUUUUUGUCUUUUCUUGUUUAGAUACCAAUCUUUUAAAUUCUUGCAUUUUAGUAAGAAAGCUACCUUUUUAUGGAUGUU	2.83
